Assay results pooled from the literature.
Numbers after ± are the reported error.

CC(C)c1ncc(C(=O)N2CCOC3(CCN(Cc4ccc(F)c(CCNC[C@H](O)c5ccc(O)c6[nH]c(=O)sc56)c4)CC3)C2)s1 — clearance (human): 21.7 mL/min/kg
CC(=O)O[C@H]1C(=O)[C@@]2(C)[C@H]([C@H](OC(=O)c3ccccc3)[C@]3(O)C[C@H](OC(=O)[C@H](O)[C@@H](NC(=O)c4ccccc4)c4ccccc4)C(C)=C1C3(C)C)[C@]1(OC(C)=O)CO[C@@H]1C[C@@H]2O — clearance (human; intravenous, dose not given): 432 ± 142 mL/min
NS(=O)(=O)OC[C@@H]1C[C@@H](n2ccc3c(N[C@H]4CCc5ccccc54)ncnc32)C[C@@H]1O — clearance (human females, plasma; median, BSA-adjusted): 17.9 L/h/m²
Nc1ccn([C@@H]2O[C@H](CO)[C@@H](O)C2(F)F)c(=O)n1 — clearance (HPLC-UV; human, plasma; 800 mg/m^2, median, after paricalcitol): 48.1 L/h/m²
Cc1c2oc3c(C)ccc(C(=O)N[C@@H]4C(=O)N[C@H](C(C)C)C(=O)N5CCC[C@H]5C(=O)N(C)CC(=O)N(C)[C@@H](C(C)C)C(=O)O[C@@H]4C)c3nc-2c(C(=O)N[C@@H]2C(=O)N[C@H](C(C)C)C(=O)N3CCC[C@H]3C(=O)N(C)CC(=O)N(C)[C@@H](C(C)C)C(=O)O[C@@H]2C)c(N)c1=O — clearance (population PK, three-compartment; human): 11.9 L/h/70 kg
Cc1cn(-c2cc(NC(=O)c3ccc(C)c(Nc4nccc(-c5cccnc5)n4)c3)cc(C(F)(F)F)c2)cn1 — clearance (population PK model; human, plasma; oral, typical value): 575 mL/min
CN[C@@H](C)C(=O)N[C@H]1CN(S(=O)(=O)c2cccc(S(=O)(=O)N3CC[C@H]4CC[C@@H](C(=O)NC(c5ccccc5)c5ccccc5)N4C(=O)[C@@H](NC(=O)[C@H](C)NC)C3)c2)CC[C@H]2CC[C@@H](C(=O)NC(c3ccccc3)c3ccccc3)N2C1=O — clearance (LC-MS/MS, noncompartmental; human, plasma; 45 mg, cycle 1 day 1): 852 ± 387 mL/min
OCc1cc(C(O)CNCCCCCCOCCCCc2ccccc2)ccc1O (centres unmarked) — clearance (human): 9.17 mL/min/kg
Cn1cncc1[C@@](N)(c1ccc(Cl)cc1)c1ccc2c(c1)c(-c1cccc(Cl)c1)cc(=O)n2C — clearance (healthy human, plasma; intravenous, 25 mg): 583 mL/min
O=C(/C=C/c1cccc(S(=O)(=O)Nc2ccccc2)c1)NO — clearance (human patients, plasma; 2000 mg/m^2): 23.2 L/h/m²
CC(=O)O[C@H]1C(=O)[C@@]2(C)[C@H]([C@H](OC(=O)c3ccccc3)[C@]3(O)C[C@H](OC(=O)[C@H](O)[C@@H](NC(=O)c4ccccc4)c4ccccc4)C(C)=C1C3(C)C)[C@]1(OC(C)=O)CO[C@@H]1C[C@@H]2O — clearance (human, plasma; intravenous infusion, 60 mg/m^2, cycle 1 day 15, with oral co-drug daily): 292 mL/min
CNC(=O)c1cc(Cl)c(OC(C)(C)C(=O)O)cc1OC[C@@H](O)CN1CCC2(CC1)Cc1cc(Cl)ccc1O2 — clearance (human): 25 mL/min/kg
CN(C)CCCNC(=O)/C(=C/CCCCC(=O)NO)COc1cccc2ccccc12 — clearance (human; iv, 250 mg/m2, day 1, single dose, mean): 115 mL/min
NC(=O)N1c2ccccc2CC(O)c2ccccc21 (centres unmarked) — clearance (population PK modelling; human patients, plasma; weight-scaled volume and clearance): 51.5 mL/min
Cc1ccc([C@@H]2O[C@H](CO)[C@@H](O)[C@H](O)[C@H]2O)cc1Cc1ccc(-c2ccc(F)cc2)s1 — clearance (human, maintenance hemodialysis patients; oral, 300 mg once daily, steady state, mean): 218 mL/min
Cn1cnc2c(F)c(Nc3ccc(Br)cc3Cl)c(C(=O)NOCCO)cc21 — clearance (transit compartment absorption model; human, plasma; oral): 145 mL/min
CN(C)N=Nc1[nH]cnc1C(N)=O — clearance (human patients, plasma; intravenous, 1000 mg/m^2 over 1 h, cycle 2 day 1, co-administered with another drug): 6.74 L/h/m²

A few entries again:
CC(C)c1ncc(C(=O)N2CCOC3(CCN(Cc4ccc(F)c(CCNC[C@H](O)c5ccc(O)c6[nH]c(=O)sc56)c4)CC3)C2)s1 — clearance (human): 21.7 mL/min/kg
